Assay results from different studies.
Lines come from different studies, so protocols differ. “And” joins repeats or separate records; there may be more than shown. ± marks the error that the study gave.

The tumour volume of `N.N.[Cl][Pt][Cl]` is reported as 189 mm3 and 90.8 mm3 and 171 mm3 and 178 mm3 and 348 mm3 and 53.1 mm3 and 76.8 mm3 and 109 mm3 (KSN/Slc nude mice, SAS xenograft; dose not given, day 4).
`Cc1cccc(C)c1NC(=O)C1CCCCN1` (stereo not shown) — result for “sensory block duration”: 43.4 ± 6.5 min (Sprague-Dawley rat, male; intrathecal, 80 mM).
With `Cc1c(C(=O)O)ccc2c3n(nc12)[C@@H]1[C@H](C3)N(CC2CC2)[C@@]2(C(=O)Nc3cc(Cl)ccc32)[C@H]1c1cccc(Cl)c1F` the median survival was 61 days (DKO mouse, sample A orthotopic PDX; 2 mg/kg weekly, 2 doses).
`C[C@H]1O[C@@H](O[C@H]2CC[C@@]3(C)[C@@H](CC[C@]4(C)[C@@H]3C=C[C@]35OC[C@@]6(CCC(C)(C)C[C@H]63)[C@@H](O)C[C@]54C)[C@]2(C)CO)[C@H](O)[C@@H](O[C@@H]2O[C@H](CO)[C@@H](O)[C@H](O)[C@H]2O)[C@H]1O` has an AST activity of 47.2 U/L and 44.3 U/L and 33.5 U/L and 35.5 U/L and 53 U/L and 59.7 U/L (Mus musculus, chronic-plus-binge ethanol-fed, AAV8-TBG-Null vector, plasma; oral, high dose, 5 h).
`C=CCNc1c(O)cc2c(O)c1C[C@@H](C)C[C@H](OC)[C@H](O)[C@@H](C)/C=C(\C)[C@H](OC(N)=O)[C@@H](OC)/C=C\C=C(/C)C(=O)N2`: “patients with stable disease” 59% (RECIST v1.0; human soft tissue sarcoma; concentration not given, best response).
`Cc1nc(Nc2ccc(CC(=O)O)cc2)nc(Nc2ccc(F)c(C(F)(F)F)c2)c1C`: UCP1-positive area “increased” (C57BL/6J mice, high-fat diet, brown adipose tissue; intraperitoneal, 0.3 mg/kg daily, 60% fat diet 12 weeks, dosed last four; baseline: vehicle).
`CN1CCN(S(=O)(=O)c2cc([N+](=O)[O-])ccc2N(CCOS(C)(=O)=O)CCOS(C)(=O)=O)CC1` — result for “EFS delay (T-C)”: 58.5 days (NSG mice, sample CA PDX; intraperitoneal, 25 mg/kg weekly x3; baseline: vehicle).
`c1ccc2c(c1)Nc1ccccc1S2` gave a tumour volume of 492 mm³ (CT26 tumour-bearing mice; intraperitoneal, 100 mg/kg equivalents daily, day 4).
`C=CC(=O)N[C@H]1C=C(C)c2c(-c3cnc4ccccc4c3)c3c(N)ncnc3n2C1` — result for “tumour growth inhibition”: 79.7% (NCI-H2073 EGFR SVD knock-in xenograft, BALB/c nude mice; 100 mg/kg once daily, 21 days).
For `CCCCC/C=C\C/C=C\C/C=C\Cc1ccccc1CCCC(=O)N[C@H](C)CO`, “duration of effect” read 10 to 30 min (mechanical hypersensitivity, electronic von Frey; male CD1 mouse, CFA inflammatory pain, ipsilateral paw; 1 mg/kg; baseline: vehicle).
`Clc1cc2c(cc1Cl)Oc1cc(Cl)c(Cl)cc1O2` — result for “mRNA fold change”: 2.1 fold (RNA-Seq, refers to: Tbxa2r; Sprague-Dawley rat, female, liver; 10 µg/kg; baseline: vehicle).
`COc1cc2c3c(n(CCCN4CCOCC4)c(=O)c2cc1OC)-c1cc2c(cc1C3=O)OCO2` — result for “mean survival time”: 25 days (GL261-Luc, mouse orthotopic glioblastoma; intravenous, 25 mg/kg).
With `CCCCC1(CCCC)CN(c2ccccc2)c2cc(SC)c(OCC(=O)N[C@@H](C(=O)NCC(=O)O)c3ccccc3)cc2S(=O)(=O)C1` the serum HDL-C was 44.5 mg/dL (refers to: HDL cholesterol; human, serum; 15 mg once daily, day 7).
Under “change in mean NPI score”, `Cc1cn(-c2cc(NC(=O)c3ccc(C)c(Nc4nccc(-c5cccnc5)n4)c3)cc(C(F)(F)F)c2)cn1` is recorded as 3 (human patients; dose not given, 6 months from baseline, caregiver distress, within group; direction not given).
`O=C(O)/C=C/C(=O)O.Oc1cccc2[nH]cc(CCNCc3ccccc3)c12` gave a distance travelled of 2700 ± 316 cm (C57BL/6J mice; subcutaneous, 0.3 mg/kg, 30 min).
For `CCCCCN1C[C@H](O)[C@@H](O)[C@H](O)[C@@H]1CO`, the median survival was 151 days (Hexb-/- mice, male; 30 mg/kg/day).
For `C[C@]1(CO)Cc2ncn(-c3ccc(C#N)c(Cl)c3)c2C(=O)O1`, “urinary sodium excretion 0-24 h” read 134 mmol (Chinese subjects; 3 mg single dose).
Under “log2 fold change”, `CC[C@H](C)[C@@H]1NC(=O)[C@@H]2CCCN2C(=O)[C@H](CC(C)C)NC(=O)[C@H](CC(C)C)NC(=O)CNC(=O)[C@@H](NC(=O)[C@@H](NC(=O)[C@H](CC(=O)O)NC(=O)CNC(=O)[C@@H](NC(=O)[C@H](C)NC(=O)CNC(=O)[C@H](CCCCN)NC(=O)[C@H](CC(C)C)NC(=O)[C@H](CC(C)C)NC(=O)[C@H](CCCCN)NC(=O)CNC(=O)[C@@H](NC(=O)[C@@H](N)CC(C)C)C(C)C)C(C)C)C(C)C)CSSC[C@@H](C(=O)O)NC1=O` is recorded as -3.4 (RNA-seq, refers to: Apof mRNA; mouse traumatic brain injury, frontal cortex and hippocampus; dose not given; baseline: TBI plus compound vs TBI).
For `CC(C)C[C@H](NC(=O)[C@H](CCC1CCCCC1)NC(=O)[C@@H]1CCCN1C(=O)c1ccc(F)cc1)C(=O)NC(C)(C)C(=O)N[C@@H](CC(C)C)C(=O)N[C@@H](CC(C)C)C(=O)NC(C)(C)C(=O)NC(C)(C)C(=O)NCCC(=O)NC1(CN(C)C)CCC1`, the calcein leakage was 24.4% (small unilamellar vesicles; concentration not given).

Some of these lines once more:
`C=CC(=O)N[C@H]1C=C(C)c2c(-c3cnc4ccccc4c3)c3c(N)ncnc3n2C1` — result for “tumour growth inhibition”: 79.7% (NCI-H2073 EGFR SVD knock-in xenograft, BALB/c nude mice; 100 mg/kg once daily, 21 days).
